Assay results of several laboratories.
Each numbered part is a random draw from the data of one study; scales do not carry over between parts. Values joined by “and” are separate records of one study, mostly repeats; a detail may differ.
Sequence of UniProt Q15139 (whole entry, looked up): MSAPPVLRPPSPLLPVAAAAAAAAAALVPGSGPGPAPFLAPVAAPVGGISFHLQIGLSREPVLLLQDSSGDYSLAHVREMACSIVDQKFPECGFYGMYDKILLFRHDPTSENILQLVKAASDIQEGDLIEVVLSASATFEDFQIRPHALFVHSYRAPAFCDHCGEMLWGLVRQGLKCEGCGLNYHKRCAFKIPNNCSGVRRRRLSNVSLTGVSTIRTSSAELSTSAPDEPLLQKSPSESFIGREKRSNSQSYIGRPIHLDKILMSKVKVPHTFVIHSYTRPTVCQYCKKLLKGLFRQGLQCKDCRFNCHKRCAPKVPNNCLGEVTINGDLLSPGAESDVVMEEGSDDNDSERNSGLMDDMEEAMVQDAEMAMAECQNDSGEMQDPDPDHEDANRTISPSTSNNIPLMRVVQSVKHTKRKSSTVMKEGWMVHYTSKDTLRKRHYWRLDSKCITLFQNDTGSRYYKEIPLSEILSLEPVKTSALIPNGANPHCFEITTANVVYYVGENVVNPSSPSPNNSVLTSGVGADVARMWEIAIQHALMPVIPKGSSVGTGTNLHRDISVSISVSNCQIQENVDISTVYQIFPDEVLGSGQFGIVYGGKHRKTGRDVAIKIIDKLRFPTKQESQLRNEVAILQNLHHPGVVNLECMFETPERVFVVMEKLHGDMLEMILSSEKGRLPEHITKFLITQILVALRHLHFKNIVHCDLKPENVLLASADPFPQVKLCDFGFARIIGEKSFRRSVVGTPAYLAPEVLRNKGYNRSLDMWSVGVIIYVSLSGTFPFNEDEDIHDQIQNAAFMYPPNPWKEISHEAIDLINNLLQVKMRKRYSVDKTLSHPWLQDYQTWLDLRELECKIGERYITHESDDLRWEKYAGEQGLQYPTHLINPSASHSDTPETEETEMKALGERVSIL
Sequence of UniProt O14965 (whole entry, looked up): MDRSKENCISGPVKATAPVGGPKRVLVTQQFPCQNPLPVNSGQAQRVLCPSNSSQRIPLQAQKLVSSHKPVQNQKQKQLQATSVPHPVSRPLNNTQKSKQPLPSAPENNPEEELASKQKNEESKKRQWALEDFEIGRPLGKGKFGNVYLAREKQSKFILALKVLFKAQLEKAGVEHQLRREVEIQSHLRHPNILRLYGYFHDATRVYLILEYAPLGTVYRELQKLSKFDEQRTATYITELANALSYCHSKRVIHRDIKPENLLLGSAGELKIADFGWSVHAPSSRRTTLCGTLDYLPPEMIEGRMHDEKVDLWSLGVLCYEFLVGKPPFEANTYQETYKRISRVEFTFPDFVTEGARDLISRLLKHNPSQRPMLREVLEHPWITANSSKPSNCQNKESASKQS
Sequence of UniProt P10721 (whole entry, unmodified, looked up): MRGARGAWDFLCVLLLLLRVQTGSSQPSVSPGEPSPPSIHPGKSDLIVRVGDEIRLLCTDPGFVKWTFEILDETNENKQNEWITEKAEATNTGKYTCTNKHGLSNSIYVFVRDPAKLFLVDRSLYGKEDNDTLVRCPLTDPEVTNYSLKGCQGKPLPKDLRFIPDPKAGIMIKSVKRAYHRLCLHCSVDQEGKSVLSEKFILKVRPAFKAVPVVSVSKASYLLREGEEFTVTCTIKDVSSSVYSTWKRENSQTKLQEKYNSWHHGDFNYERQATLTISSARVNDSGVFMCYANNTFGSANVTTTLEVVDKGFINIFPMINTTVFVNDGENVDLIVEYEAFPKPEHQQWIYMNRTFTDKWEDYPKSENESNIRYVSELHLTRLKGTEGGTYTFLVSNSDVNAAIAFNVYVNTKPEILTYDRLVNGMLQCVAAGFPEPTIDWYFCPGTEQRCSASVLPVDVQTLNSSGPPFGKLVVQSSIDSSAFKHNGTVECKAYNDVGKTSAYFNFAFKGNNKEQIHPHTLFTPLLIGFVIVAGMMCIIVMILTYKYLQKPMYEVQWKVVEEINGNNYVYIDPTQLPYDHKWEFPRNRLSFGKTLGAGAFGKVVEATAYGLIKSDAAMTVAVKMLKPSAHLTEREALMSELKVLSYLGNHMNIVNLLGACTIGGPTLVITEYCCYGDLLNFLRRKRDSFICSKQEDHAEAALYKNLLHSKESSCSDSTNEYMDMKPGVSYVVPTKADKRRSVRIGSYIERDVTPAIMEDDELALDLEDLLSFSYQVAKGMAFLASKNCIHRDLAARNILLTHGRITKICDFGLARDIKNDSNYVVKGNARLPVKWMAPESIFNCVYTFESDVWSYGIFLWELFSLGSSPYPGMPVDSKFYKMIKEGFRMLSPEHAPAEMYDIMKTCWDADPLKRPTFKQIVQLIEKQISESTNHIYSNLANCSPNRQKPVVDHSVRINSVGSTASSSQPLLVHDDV
Sequence of UniProt Q15208 (whole entry, looked up): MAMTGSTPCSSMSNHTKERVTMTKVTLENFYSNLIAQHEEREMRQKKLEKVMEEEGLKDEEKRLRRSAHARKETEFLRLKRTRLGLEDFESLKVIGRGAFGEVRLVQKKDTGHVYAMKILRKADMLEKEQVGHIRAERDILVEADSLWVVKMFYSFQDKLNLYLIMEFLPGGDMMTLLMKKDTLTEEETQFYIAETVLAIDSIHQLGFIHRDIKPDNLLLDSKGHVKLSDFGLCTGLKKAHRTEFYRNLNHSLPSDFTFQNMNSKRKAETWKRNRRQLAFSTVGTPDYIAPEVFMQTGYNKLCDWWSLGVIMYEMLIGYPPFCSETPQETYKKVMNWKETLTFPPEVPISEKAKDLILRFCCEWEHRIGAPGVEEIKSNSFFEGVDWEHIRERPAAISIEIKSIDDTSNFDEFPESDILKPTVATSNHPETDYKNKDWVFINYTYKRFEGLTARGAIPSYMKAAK
Sequence of UniProt P08922 (whole entry, looked up): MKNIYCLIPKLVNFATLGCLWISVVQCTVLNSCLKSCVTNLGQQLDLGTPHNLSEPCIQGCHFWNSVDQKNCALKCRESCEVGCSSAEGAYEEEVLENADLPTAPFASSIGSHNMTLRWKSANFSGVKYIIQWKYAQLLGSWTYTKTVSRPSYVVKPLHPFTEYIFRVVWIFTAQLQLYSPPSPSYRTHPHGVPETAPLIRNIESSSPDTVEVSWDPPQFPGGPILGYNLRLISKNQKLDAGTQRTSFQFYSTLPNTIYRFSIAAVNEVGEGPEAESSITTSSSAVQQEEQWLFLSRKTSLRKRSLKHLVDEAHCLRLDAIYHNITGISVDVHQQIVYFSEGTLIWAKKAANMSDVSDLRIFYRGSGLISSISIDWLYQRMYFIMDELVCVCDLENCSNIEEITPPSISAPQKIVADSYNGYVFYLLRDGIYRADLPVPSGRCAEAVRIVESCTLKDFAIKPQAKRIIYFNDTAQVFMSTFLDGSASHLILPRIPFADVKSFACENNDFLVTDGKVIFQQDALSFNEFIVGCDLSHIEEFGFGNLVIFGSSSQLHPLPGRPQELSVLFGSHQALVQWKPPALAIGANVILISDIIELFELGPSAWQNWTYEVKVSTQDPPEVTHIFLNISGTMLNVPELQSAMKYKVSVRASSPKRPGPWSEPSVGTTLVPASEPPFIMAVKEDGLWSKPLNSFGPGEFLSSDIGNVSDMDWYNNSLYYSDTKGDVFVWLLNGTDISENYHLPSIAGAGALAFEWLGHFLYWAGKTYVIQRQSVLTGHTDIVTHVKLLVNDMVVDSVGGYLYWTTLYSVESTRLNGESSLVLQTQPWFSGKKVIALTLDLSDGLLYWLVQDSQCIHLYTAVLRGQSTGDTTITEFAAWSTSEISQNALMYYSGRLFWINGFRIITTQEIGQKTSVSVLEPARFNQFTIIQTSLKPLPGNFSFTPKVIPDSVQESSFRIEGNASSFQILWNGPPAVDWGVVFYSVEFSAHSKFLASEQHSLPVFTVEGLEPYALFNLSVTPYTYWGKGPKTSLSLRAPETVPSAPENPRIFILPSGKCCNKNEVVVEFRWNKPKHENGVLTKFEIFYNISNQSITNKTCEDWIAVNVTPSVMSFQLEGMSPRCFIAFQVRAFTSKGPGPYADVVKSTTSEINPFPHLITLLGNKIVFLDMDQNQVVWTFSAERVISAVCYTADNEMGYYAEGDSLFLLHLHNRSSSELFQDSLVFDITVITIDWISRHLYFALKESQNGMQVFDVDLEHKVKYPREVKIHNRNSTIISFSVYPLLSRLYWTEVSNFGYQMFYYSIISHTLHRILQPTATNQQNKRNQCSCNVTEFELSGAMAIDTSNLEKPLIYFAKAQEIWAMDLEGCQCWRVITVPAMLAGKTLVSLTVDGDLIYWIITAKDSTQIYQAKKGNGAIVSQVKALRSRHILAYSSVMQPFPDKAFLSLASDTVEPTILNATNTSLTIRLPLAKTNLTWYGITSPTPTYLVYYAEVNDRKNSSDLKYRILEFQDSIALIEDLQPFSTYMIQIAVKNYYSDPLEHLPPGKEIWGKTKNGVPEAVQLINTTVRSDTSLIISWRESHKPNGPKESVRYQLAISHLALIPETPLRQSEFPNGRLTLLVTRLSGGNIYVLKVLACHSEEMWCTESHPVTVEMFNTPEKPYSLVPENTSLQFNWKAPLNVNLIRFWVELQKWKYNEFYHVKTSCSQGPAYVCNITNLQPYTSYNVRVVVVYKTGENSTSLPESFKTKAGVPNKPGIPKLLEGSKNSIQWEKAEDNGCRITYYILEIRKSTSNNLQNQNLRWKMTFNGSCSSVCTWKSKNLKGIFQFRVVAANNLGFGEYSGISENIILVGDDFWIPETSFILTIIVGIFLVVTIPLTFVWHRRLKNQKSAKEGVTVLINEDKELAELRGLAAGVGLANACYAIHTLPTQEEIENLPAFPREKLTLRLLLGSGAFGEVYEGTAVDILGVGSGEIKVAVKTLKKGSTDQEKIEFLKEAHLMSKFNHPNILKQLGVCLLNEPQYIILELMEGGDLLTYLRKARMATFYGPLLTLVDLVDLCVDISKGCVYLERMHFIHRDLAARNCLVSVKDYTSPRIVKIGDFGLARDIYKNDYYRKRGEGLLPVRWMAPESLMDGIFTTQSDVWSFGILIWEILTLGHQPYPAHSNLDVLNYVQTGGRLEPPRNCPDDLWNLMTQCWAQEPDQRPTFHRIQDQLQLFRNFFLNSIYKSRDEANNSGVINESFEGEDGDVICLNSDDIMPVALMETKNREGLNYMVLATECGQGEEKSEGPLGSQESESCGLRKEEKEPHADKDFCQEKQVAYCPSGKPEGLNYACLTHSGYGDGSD

Series 1
SMILES: CCC(=O)Nc1ccc2ncnc(Nc3cccc(Br)c3)c2c1
Read-out: enzyme activity
Mode: inhibitor
Tested at: 0.5 µM
Relative to: control
For ROS1 (Homo sapiens, UniProt P08922): remaining activity read 97.5%.
MAP3K8 (Homo sapiens, UniProt P41279) — remaining activity: 93%.
It gave 90% for remaining activity (SLK (Homo sapiens, UniProt Q9H2G2)).
For RET (Homo sapiens, UniProt P07949): remaining activity read 106%.
The remaining activity was 102% (CDK7 (Homo sapiens, UniProt P50613)).
The remaining activity was 76.1% (MAP3K2 (Homo sapiens, UniProt Q9Y2U5)).
For NEK9 (Homo sapiens, UniProt Q8TD19): remaining activity read 105%.
It gave 92% for remaining activity (DMPK (Homo sapiens, UniProt Q09013)).
It gave 92.1% for remaining activity (CAMK1G (Homo sapiens, UniProt Q96NX5)).
For Cyclin-dependent kinase 2, with cyclin A (CDK2, Homo sapiens, UniProt P24941): remaining activity read 95.1%.
PRKD1 (Homo sapiens, UniProt Q15139) — remaining activity: 97.9%.
MAPK10 (Homo sapiens, UniProt P53779) — remaining activity: 96.5%.
The remaining activity was 106% (PKN2 (Homo sapiens, UniProt Q16513)).
The remaining activity was 61.4% (CSNK2A2 (Homo sapiens, UniProt P19784)).
It gave 97.4% for remaining activity (Aurora kinase A (AURKA, Homo sapiens, UniProt O14965)).
For HIPK3 (Homo sapiens, UniProt Q9H422): remaining activity read 92.1%.
It gave 83.3% for remaining activity (BRSK1 (Homo sapiens, UniProt Q8TDC3)).
GRK5 (Homo sapiens, UniProt P34947) — remaining activity: 107%.
For PTK2B (Homo sapiens, UniProt Q14289): remaining activity read 99%.
For ROCK2 (Homo sapiens, UniProt O75116): remaining activity read 86.1%.
NTRK3 (Homo sapiens, UniProt Q16288) — remaining activity: 95.8%.
For DYRK4 (Homo sapiens, UniProt Q9NR20): remaining activity read 113%.
The remaining activity was 104% (CAMK1D (Homo sapiens, UniProt Q8IU85)).

Series 2
SMILES: CC(=O)N1CCC(c2ccc(C(=O)NC(=N)N)cc2C(F)(F)F)CC1
Read-out: cell-free assay
Method: competition with immobilised ligand
Tested at: 1 µM
The remaining binding was 87% (PKN1 (Homo sapiens, UniProt Q16512)).
PIK3CA (Homo sapiens, UniProt P42336, H1047Y) — remaining binding: 100%.
KIT (Homo sapiens, UniProt P10721, V559D/V654A) — remaining binding: 100%.
For Tyrosine-protein kinase ABL1, non-phosphorylated (ABL1, Homo sapiens, UniProt P00519, H396P): remaining binding read 60%.
STK38 (Homo sapiens, UniProt Q15208) — remaining binding: 96%.
The remaining binding was 99% (EPHA5 (Homo sapiens, UniProt P54756)).
The remaining binding was 100% (HIPK2 (Homo sapiens, UniProt Q9H2X6)).
For NLK (Homo sapiens, UniProt Q9UBE8): remaining binding read 100%.

Series 3
Species: human
Sample: microsomes or S9
Tested at: 2 µM
Time: 0.5 h
With `O=S(=O)(Cc1cc(Cl)cc(Cl)c1)N1CCN(c2nccs2)CC1` the remaining compound was > 99%.
With `COC(=O)c1ncn2c1C(=O)OC(COc1ccccc1)C2` (centres unmarked) the remaining compound was 2.64%.
`COc1cc(=O)[nH]cc1C(=O)N1CCN(c2nc(C)cs2)C(C)C1` (centres unmarked) has a remaining compound of 95.2%.
`O=C(Nc1ccc2c(c1)COC2=O)c1ccc(Cl)c(Cl)c1` has a remaining compound of > 99%.
`Cn1c(=O)c2sc3c(c2n(CCN2CCCCC2)c1=O)CCCC3` has a remaining compound of 72.5%.
For `CCC(=O)N(CCOC)CC(=O)N1N=C(c2cccs2)CC1c1sccc1C` (centres unmarked), the remaining compound was 36%.

Series 4
Target: Cellular tumor antigen p53, full length (TP53, Homo sapiens, UniProt P04637, residues 1-393)
Method: protein-binding microarray
Molecule type: hairpin DNA
Sample: in vitro
Tested at: not given
Setting: whole hairpin DNA, median over replicate spots
Relative to: not given
Reading: higher = stronger binding
For `CGGACATGCCCGGGCATGTCTCCTGACATGCCCGGGCATGTCCGACACTC (5mC at 31)`, the median fluorescence was 17900 a.u.
`CGGACATGCCCGGGAATGTCTCCTGACATTCCCGGGCATGTCCGACACTC` has a median fluorescence of 8380 a.u.
`CCACACGTAGTGGCATGCCTTCCTAGGCATGCCACTACGTGTGGACACTC` has a median fluorescence of 7760 a.u.
`CGGACATGCCCCGGCATGTCTCCTGACATGCCGGGGCATGTCCGACACTC (5mC at 32)` gave a median fluorescence of 13100 a.u.
`CCACACTTGGTGGCATGCCTTCCTAGGCATGCCACCAAGTGTGGACACTC` gave a median fluorescence of 6440 a.u.
`CGGACATGCCCCGGCATGTCTCCTGACATGCCGGGGCATGTCCGACACTC` has a median fluorescence of 15600 a.u.
The median fluorescence of `CGGACATGCCCGGGCGTGTCTCCTGACACGCCCGGGCATGTCCGACACTC` is reported as 13100 a.u.
With `CCACGCGTGGTGGCATGCCTTCCTAGGCATGCCACCACGCGTGGACACTC (5mC at 4)` the median fluorescence was 8060 a.u.

Further values, each from its own experiment
The recovery of `CC(C)NCC(O)COc1cccc2ccccc12` (centres unmarked) is reported as 95.1% (Caco-2; 10 µM, 120 min, apical to basolateral).
With `CN(C)CCOC(c1ccccc1)c1ccccc1.Cn1c(=O)c2[nH]c(Cl)nc2n(C)c1=O` the nuclei count was 3.7 z-score (mouse MPNST tumor cells; high-content nuclear imaging, refers to: cell number; 10 µM, 12 h, mean of 2 replicates; relative to: plate mean, higher = more cells).
With `C[C@H]1O[C@@H](O[C@H]2[C@@H](O)C[C@H](O[C@H]3[C@@H](O)C[C@H](O[C@H]4CC[C@@]5(C)[C@H](CC[C@@H]6[C@@H]5C[C@@H](O)[C@]5(C)[C@@H](C7=CC(=O)OC7)CC[C@]65O)C4)O[C@@H]3C)O[C@@H]2C)C[C@H](O)[C@@H]1O` the recovery was 92.3% (Caco-2; 10 µM, 120 min, apical to basolateral).
The spermine level of `CC(=O)N[C@@H](Cc1c[nH]c2ccccc12)C(=O)N[C@@H](CCC(=O)C=[N+]=[N-])C(=O)OC(C)C` is reported as 2.37e+06 a.u. and 2.95e+06 a.u. and 2.08e+06 a.u. and 1.33e+06 a.u. and 2.77e+06 a.u. and 3.1e+06 a.u. (UPLC-MS/MS; EL4 tumor, C57BL/6 CES1-/- mice, tumor; subcutaneous, 0.3 mg/kg DON equivalent daily, 5 days; higher = more metabolite).
Under “paw withdrawal frequency”, `COc1cc(C(=O)OCCCN2CCCN(CCCOC(=O)c3cc(OC)c(OC)c(OC)c3)CC2)cc(OC)c1OC` is recorded as 0.05 fraction of stimuli and 0.29 fraction of stimuli and 0.03 fraction of stimuli and 0.36 fraction of stimuli and 0.32 fraction of stimuli (von Frey test; mouse, STZ diabetic neuropathy; subcutaneous, 30 mg/kg, second of three doses, 24 h).

For quick reference, copied from above (series 2):
For Tyrosine-protein kinase ABL1, non-phosphorylated (ABL1, Homo sapiens, UniProt P00519, H396P): remaining binding read 60%.
STK38 (Homo sapiens, UniProt Q15208) — remaining binding: 96%.
The remaining binding was 99% (EPHA5 (Homo sapiens, UniProt P54756)).
For NLK (Homo sapiens, UniProt Q9UBE8): remaining binding read 100%.
PIK3CA (Homo sapiens, UniProt P42336, H1047Y) — remaining binding: 100%.
